Published values collected from several papers.
Numbered parts are unrelated; each lists some results of a single study. Changes are numbered by the printed parent chain.

Study 1
Target: Fragile X messenger ribonucleoprotein 1, C-terminal low-complexity region (Fmr1, Mus musculus, UniProt P35922)
Technique: RNA Bind-n-Seq
Molecule type: RNA
Medium: in vitro
Concentration: 200 nM
Setting: whole 134-nt RNA, ends assumed
Added: 150 mM LiCl
Reference: input library
Direction: higher = stronger binding
Quantity: log2 enrichment
Each molecule: 7-deaza-guanosine replaces G
Constant ends, left off below: GGGAGUUCUACAGUCCGACGAUC … UGGAAUUCUCGGGUGUCAAGG
GCAGGAGGUAAAAACAAAUGGAAAUGCUUCGGAUAGUGGCAGGGGUGGGGGUUGCUAAGGAAAGGGUGGGAUGGGAGUGGGUAAAGAGUU: 1.63
GUCAAGAAAGAUCUUAAGACUGGUCAUUCAAAGGGGUUUGGCUUUGUUCGUUUUACGGAAUAUGAAACACAAGUGAAAGUAAUGUCACAG: -2.12
CUCAAGUCCUGUGCUACACAUCGUAUGUACCGAAUCGGGGAGGGGAGGGGAGGAAAGUAUUAUGUUACGCCGUUCGGAUCUGCACUUCCA: -0.279
CCUGUGCUACACAUCGUAUGUACCGAAUCGGGUUUUUUUGGGUUUUUUUGGGAAAAAGGGAAAGUAUUAUGUUACGCCGUUCGGAUCUGC: -1.28
CCUGUGCUACACAUCGUAUGUACCGAAUCGGGAAAAAAAGGGUUUUUGGGUUUUUUUGGGAAAGUAUUAUGUUACGCCGUUCGGAUCUGC: -2.54
UAGCAAGCCAAAUUACAGCAGCAGAUGGACCUGCAGAAAAAUCACAUUUUCCGUCUGACUCAAGGACUGCAAGAAGCUCUAGAUCGGGCU: -3.93
CUGUGCUACACAUCGUAUGUACCGAAUCGGGGCCCCCCCGGCCCCCCCGGCCCCCCCGGGGAAAGUAUUAUGUUACGCCGUUCGGAUCUG: 0.659
UAACUUUAUAGGAGGAUCUGAUGGAUAUGGCAGUGGACGUGGAUUUGGGGAUGGCUAUAAUGGGUAUGGAGGAGGACCUGGAGGUGGCAA: -0.446

Study 2
Target: CCND2, cyclin fold, Cln2 fusion (human)
Technique: yeast growth competition, sequencing
Medium: yeast
Setting: weak parent motif
Reference: not given
Direction: higher = stronger binding
Quantity: normalised enrichment score
Starting sequence: MASTL docking peptide (human); PMIAKNLMCELDE; partner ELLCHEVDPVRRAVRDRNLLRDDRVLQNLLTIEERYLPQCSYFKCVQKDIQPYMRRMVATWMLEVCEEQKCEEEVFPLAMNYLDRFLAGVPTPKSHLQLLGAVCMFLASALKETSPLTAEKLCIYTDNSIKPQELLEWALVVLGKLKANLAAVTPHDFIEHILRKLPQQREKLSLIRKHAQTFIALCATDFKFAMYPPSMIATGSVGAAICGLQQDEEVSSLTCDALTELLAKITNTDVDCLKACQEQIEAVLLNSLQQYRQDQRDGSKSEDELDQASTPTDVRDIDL
N6C: 0.459
D12C: 0.239
E10D: 0.136
D12Y: -0.412
L11D: 0.0638
I3V: 0.102
L11G: 0.32

Study 3
Target: PABPC1L2, full length, GST fusion (mouse, UniProt A0ABA7IW68)
Technique: RNAcompete
Molecule type: RNA
Medium: in vitro
Concentration: 20 nM
Setting: 7-mer, probes averaged, single round
Reference: mean of 7-mers
Direction: higher = stronger binding
Quantity: 7-mer Z-score
Target sequence (chain): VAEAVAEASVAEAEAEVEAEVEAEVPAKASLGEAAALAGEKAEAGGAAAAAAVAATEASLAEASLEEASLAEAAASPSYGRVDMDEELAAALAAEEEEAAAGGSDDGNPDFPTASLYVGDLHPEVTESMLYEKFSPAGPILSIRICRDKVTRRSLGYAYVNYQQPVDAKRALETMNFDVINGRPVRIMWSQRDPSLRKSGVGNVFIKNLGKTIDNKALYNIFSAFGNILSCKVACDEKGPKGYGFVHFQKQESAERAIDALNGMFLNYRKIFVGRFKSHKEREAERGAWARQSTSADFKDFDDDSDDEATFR
CGUACCU: -0.295
GGCGCAG: 0.173
AGAUUUU: -0.394
UCCCAUA: -0.246
GGACACU: 0.0497
GCCUAGU: -0.306
AAGACCG: 0.117

Further values, each from its own experiment
PhoQ, residues 284 288 289 292 302 303 SSTLLI — fold induction (PhoP, residues 12 14 15 18 19 YHFSH (Escherichia coli, UniProt P23836); Sort-seq, measured: YFP reporter; E. coli; PhoQ-PhoP variant library, added: 10 µM Mg2+; reference: high Mg2+ state, higher = stronger signaling): 1.88
